{"data": "Published values from different studies", "note": "Numbered parts are unrelated; each lists some results of a single study."}
{"data": "Sample 1", "target": "Sal-like protein 4, full length isoform B (SALL4, Homo sapiens, UniProt Q9UJQ4-2, residues 1-616)", "method": "universal PBM", "molecule type": "double-stranded DNA, one strand shown", "medium": "in vitro", "tested at": "not given", "setting": "8-mer, flanks averaged, mean of replicates", "reading": "higher = stronger binding"}
{"Oligonucleotide": "AGACTTTA", "E-score": 0.0504}
{"Oligonucleotide": "CAGTTTCC", "E-score": -0.0643}
{"Oligonucleotide": "CCAAAACA", "E-score": 0.128}
{"Oligonucleotide": "CCTCGGCA", "E-score": -0.172}
{"Oligonucleotide": "AGAACCAT", "E-score": 0.131}
{"Oligonucleotide": "GCTCCTTA", "E-score": -0.115}
{"Oligonucleotide": "CCTAGAAG", "E-score": -0.00071}
{"Oligonucleotide": "AGGTAGTC", "E-score": -0.123}
{"Oligonucleotide": "AAAGTGTC", "E-score": 0.0546}
{"Oligonucleotide": "CCCTCCCC", "E-score": -0.118}
{"Oligonucleotide": "CTGAGCAA", "E-score": -0.0705}
{"Oligonucleotide": "CACATGTC", "E-score": -0.0357}
{"Oligonucleotide": "CGTCGACG", "E-score": -0.28}
{"Oligonucleotide": "ACATCGGC", "E-score": -0.138}
{"Oligonucleotide": "ATGGAGGA", "E-score": 0.0734}
{"Oligonucleotide": "ATGGTTAG", "E-score": 0.0156}
{"Oligonucleotide": "CCGCAGTA", "E-score": -0.105}
{"Oligonucleotide": "TAAGCGTA", "E-score": 0.0889}
{"Oligonucleotide": "GCCGGTTA", "E-score": -0.126}
{"Oligonucleotide": "CGCGTCAC", "E-score": -0.119}
{"Oligonucleotide": "CGATTATC", "E-score": 0.00877}
{"data": "Sample 2", "target": "RNA binding protein fox-1 homolog 2, RRM domain, GST-SBP tag (RBFOX2, Homo sapiens, UniProt O43251-10, residues 100-194)", "method": "RNA Bind-n-Seq", "molecule type": "RNA", "medium": "in vitro", "tested at": "365 nM", "setting": "natural RNA segment, single round, ends assumed", "reference": "no-protein control", "reading": "higher = stronger binding", "Construct (chain)": "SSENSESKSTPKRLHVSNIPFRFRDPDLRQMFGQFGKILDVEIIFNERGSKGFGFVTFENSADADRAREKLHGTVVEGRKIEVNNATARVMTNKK"}
{"Oligonucleotide": "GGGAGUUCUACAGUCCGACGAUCCUUUUUCUACUGUUCAUUUUAUUCUGUGGCCUUUCAGUGUAAUAAACUGAAAUCAUGACUUUCACAACUGUGUUGAGUUCAUUGGGUCCUUGUCGUGUCCUUUGAAGCAUUGGAAUUCUCGGGUGCCAA", "RBNS enrichment (R)": 0.419}
{"Oligonucleotide": "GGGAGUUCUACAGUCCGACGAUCUUGAAAUAUUUAUAUUCCCAUCGGUGUGUUUAGUCCUAGAAAAUUGCUAGCAGCAGUCUUCUUCACAGUGCCUUGGGAAAAGACAUUUCAAGAGGAAACUUGAUAAUUUUUGGAAUUCUCGGGUGCCAA", "RBNS enrichment (R)": 0.341}
{"Oligonucleotide": "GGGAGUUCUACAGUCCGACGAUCUAGCUAUCUGGGACAUUAUUGGCAGUGGGCCCUGGAGGCCAGUCCCUAGCCCCCCUUGCCCCUUAUUUCUUCCCUGCUUCCCUCGAACCCAGAGAUUUUUGAGGGAUGAAUGGAAUUCUCGGGUGCCAA", "RBNS enrichment (R)": 0.357}
{"Oligonucleotide": "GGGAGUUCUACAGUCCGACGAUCUGCUUGAGUAGGACCAUUUAAACACCUAUUAUGCUAUUCUUGAGAUGGGAUUUUUCAAAGCGGCCAACACUUCACUAAUGUUUCAAAUCAAAACCUUGAGGCUAAUAUUAUGGAAUUCUCGGGUGCCAA", "RBNS enrichment (R)": 2.06}
{"Oligonucleotide": "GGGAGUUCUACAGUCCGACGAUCGAUCCAAUUAUCUUUCUGAUCCUUAAAACACAUGACUUCCAGCUGAAGAGAUGGCUCAGUGGUUCAGAGCACUUACUCCUCAGGUGUAAGACCUGGGUUUGGUUCUCAGCUGGAAUUCUCGGGUGCCAA", "RBNS enrichment (R)": 0.394}
{"Oligonucleotide": "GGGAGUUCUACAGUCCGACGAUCAAAUAUAUGUAUAUGUUGUGUAAUACACAUAAUCUGGAAAUGAAUAAAAUGCUAUAUUCUUGGUUUGAAAUUUAUCUUUACUUUUUUAUAUGAUUAUGUUUCUUGUUCCUUGGAAUUCUCGGGUGCCAA", "RBNS enrichment (R)": 1}
{"Oligonucleotide": "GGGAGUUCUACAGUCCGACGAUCUUUUUUACACAAUCAUUAAUGAGAUUUGUCUUCAGCCACCAGUGUUGGCCUUGAAGCAGAGGGCACAGCCCUUGGUGUUUGUAAAAUAAGUAUGAAUACACAGUGUGGCAUGGAAUUCUCGGGUGCCAA", "RBNS enrichment (R)": 0.474}
{"Oligonucleotide": "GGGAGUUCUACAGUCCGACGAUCUUGCUUGUAAAGUAAAAGCUUUUUUUCCUUGUAAACCAUUUAAGUCCAUUCCUUACUAUUCACUCACUCAUCUGUCUCCCUUCAUUUCACUGUUAGACUCUUUUCCACUUUGGAAUUCUCGGGUGCCAA", "RBNS enrichment (R)": 0.696}
{"Oligonucleotide": "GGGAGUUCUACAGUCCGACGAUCCUCUUGAGGCUGGCAGCCCUCCUGCAAUGAGUUGCUCUCAGUUCCUUCUGUUUGGAUUUUGCUCAACAUCUCCAGUUUCUCUGCUCUGAAAAAUGGGGAAAACUGCUAAAUGGAAUUCUCGGGUGCCAA", "RBNS enrichment (R)": 0.355}
{"Oligonucleotide": "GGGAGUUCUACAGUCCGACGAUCAUCAGGUGUGAACUUGGCUGCUAGCGUAUGAACCCAGAUGUGACGCAGAGCCUCUGCAGCGAUCUUCUCCAACUGUUCUGUAAUCUCUACUCAACAAUAAGGUUUUAGUUUGGAAUUCUCGGGUGCCAA", "RBNS enrichment (R)": 0.771}
{"Oligonucleotide": "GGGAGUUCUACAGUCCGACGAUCCCUGACUGGAAUGUAUUCAGUUUCUCAUGUUACUUCUAUUUAAAAAAUAAAAUCUAUUCUCUUAGAAGUACAGAUCAUUUUGAAACUUAAUGUGAUAUUUGUUGACAUUUUGGAAUUCUCGGGUGCCAA", "RBNS enrichment (R)": 1.11}
{"Oligonucleotide": "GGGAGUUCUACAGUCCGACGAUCAGACUAAUUCUUGUCAGGCAUUUUUGAAAAGGCUGAUUAUGUGUAUCAAGGUACAGCAUCGUAGGGUUCCCCUAAACUUGCCCUGUUUUUGUUUUUUUAGUUUGUUAUCCUGGAAUUCUCGGGUGCCAA", "RBNS enrichment (R)": 2.22}
{"data": "Sample 3", "target": "Prothrombin, mature alpha-thrombin (F2, Homo sapiens, UniProt P00734)", "method": "aptamer microarray, sandwich", "molecule type": "DNA with 2'F-ANA", "medium": "in vitro", "tested at": "200 nM", "setting": "whole 15-mer aptamer, many near background", "added": "Cy3 exosite-II aptamer, 400 nM", "reading": "higher = stronger binding", "oligonucleotide": "GGTTGGTGTGGTTGG"}
{"Modification": "2'F-ANA at 3 4 6 7 10 12 13", "mean fluorescence intensity [a.u.]": 259}
{"Modification": "2'F-ANA at 2 3 6 8 9 10 11 13", "mean fluorescence intensity [a.u.]": 292}
{"Modification": "2'F-ANA at 1 3 4 7 8 9 11 12 13", "mean fluorescence intensity [a.u.]": 255}
{"Modification": "2'F-ANA at 6 8 11 12", "mean fluorescence intensity [a.u.]": 772}
{"Modification": "2'F-ANA at 1 2 6 7 10 13 15", "mean fluorescence intensity [a.u.]": 50}
{"Modification": "2'F-ANA at 1 3 4 6 7 9 10 14 15", "mean fluorescence intensity [a.u.]": 48.3}
{"Modification": "2'F-ANA at 8 12 13 14 15", "mean fluorescence intensity [a.u.]": 259}
{"Modification": "2'F-ANA at 2 3 4 6 9 10 11 13 14 15", "mean fluorescence intensity [a.u.]": 136}
{"Modification": "2'F-ANA at 2 3 5 6 7 8 9 12 15", "mean fluorescence intensity [a.u.]": 207}
{"Modification": "2'F-ANA at 2 3 4 5 8 9 10 11 12 14 15", "mean fluorescence intensity [a.u.]": 52.8}
{"Modification": "2'F-ANA at 1 2 8 11 12 14", "mean fluorescence intensity [a.u.]": 70.7}
{"Modification": "2'F-ANA at 1 2 4 5 7 10", "mean fluorescence intensity [a.u.]": 45.8}
{"Modification": "2'F-ANA at 1 2 5 6 8 9 10 12 13 14", "mean fluorescence intensity [a.u.]": 54.3}
{"Modification": "2'F-ANA at 2 6 7 9 10 12 13 14 15", "mean fluorescence intensity [a.u.]": 83.8}
{"Modification": "2'F-ANA at 2 3 6 7 10 13 14", "mean fluorescence intensity [a.u.]": 268}
{"Modification": "2'F-ANA at 1 2 3 4 6 7 8 9 10 11 13 15", "mean fluorescence intensity [a.u.]": 55.2}
{"Modification": "2'F-ANA at 1 7 8 9 11 12", "mean fluorescence intensity [a.u.]": 392}
{"Modification": "2'F-ANA at 4 5 10 15", "mean fluorescence intensity [a.u.]": 46.8}
{"Modification": "2'F-ANA at 1 2 6 9 11 12 13 14 15", "mean fluorescence intensity [a.u.]": 58.4}
{"Modification": "2'F-ANA at 3 5 6 7 8 9 10 11 12 13 14 15", "mean fluorescence intensity [a.u.]": 51.8}
{"Modification": "2'F-ANA at 1 2 3 4 6 7 8 9 10 11 12", "mean fluorescence intensity [a.u.]": 67.2}
{"Modification": "2'F-ANA at 1 2 6 7 8 9 10 15", "mean fluorescence intensity [a.u.]": 55.2}
{"Modification": "2'F-ANA at 4 5 6 7 9 10 12", "mean fluorescence intensity [a.u.]": 52.3}
{"Modification": "2'F-ANA at 2 4 5 6 7 9 11 13 15", "mean fluorescence intensity [a.u.]": 52.1}
{"data": "Sample 4", "target": "Histone acetyltransferase KAT6A, both winged helices, GST fusion (KAT6A, Homo sapiens, UniProt Q92794, residues 1-181)", "method": "protein binding microarray", "molecule type": "double-stranded DNA, one strand shown", "medium": "in vitro", "tested at": "not given", "setting": "8-mer, flanks averaged, mean of 2 arrays, mostly near background", "reference": "not given", "reading": "higher = stronger binding", "Residues (chain)": "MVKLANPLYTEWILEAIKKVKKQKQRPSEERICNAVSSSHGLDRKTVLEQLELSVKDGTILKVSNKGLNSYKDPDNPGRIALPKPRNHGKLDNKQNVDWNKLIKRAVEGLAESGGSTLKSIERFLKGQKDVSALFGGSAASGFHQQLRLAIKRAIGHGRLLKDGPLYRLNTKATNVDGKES"}
{"Oligonucleotide": "TAACCAGA", "E-score": -0.123}
{"Oligonucleotide": "CAAGACCA", "E-score": -0.155}
{"Oligonucleotide": "CCCGACAG", "E-score": 0.125}
{"Oligonucleotide": "ACTAGATA", "E-score": -0.022}
{"Oligonucleotide": "AGTTCTTA", "E-score": -0.297}
{"Oligonucleotide": "ACACATAT", "E-score": -0.158}
{"Oligonucleotide": "GAATGAGC", "E-score": -0.0978}
{"Oligonucleotide": "ATCGCCAC", "E-score": 0.0163}
{"Oligonucleotide": "CTATTGTC", "E-score": -0.187}
{"Oligonucleotide": "AACGGATG", "E-score": 0.128}
{"Oligonucleotide": "AGAGTTCC", "E-score": -0.0041}
{"Oligonucleotide": "TCGGAACA", "E-score": 0.109}
{"Oligonucleotide": "ATCCTCGA", "E-score": -0.127}
{"Oligonucleotide": "CATTCTCA", "E-score": -0.0642}
{"Oligonucleotide": "AACTGATT", "E-score": -0.147}
{"Oligonucleotide": "GCCCGAAC", "E-score": -0.0123}
{"Oligonucleotide": "AGACAACC", "E-score": -0.0254}
{"Oligonucleotide": "AACATTAT", "E-score": 0.0222}
{"Oligonucleotide": "ACTGGTCC", "E-score": 0.0311}
{"Oligonucleotide": "ACAATGGC", "E-score": -0.0273}
{"Oligonucleotide": "ATCAAGTC", "E-score": -0.0338}
{"Oligonucleotide": "TCTTATAA", "E-score": 0.0451}
{"Oligonucleotide": "ATCGTCCG", "E-score": 0.124}
{"Oligonucleotide": "CCATTTCA", "E-score": -0.228}
{"Oligonucleotide": "GAATTAGC", "E-score": -0.0605}
{"note": "Excerpt of the above (sample 4):"}
{"Oligonucleotide": "TAACCAGA", "E-score": -0.123}
{"Oligonucleotide": "CAAGACCA", "E-score": -0.155}
{"Oligonucleotide": "CCCGACAG", "E-score": 0.125}
{"Oligonucleotide": "ACTAGATA", "E-score": -0.022}
{"Oligonucleotide": "AGTTCTTA", "E-score": -0.297}
{"Oligonucleotide": "ACACATAT", "E-score": -0.158}
{"Oligonucleotide": "GAATGAGC", "E-score": -0.0978}
{"Oligonucleotide": "ATCGCCAC", "E-score": 0.0163}
